Results from different studies.
A part holds a random share of what one study measured.

Set 1
Target: Histone acetyltransferase KAT6A, both winged helices, GST fusion (KAT6A, Homo sapiens, UniProt Q92794, residues 1-181)
Method: protein binding microarray
Molecule type: double-stranded DNA, one strand shown
Sample: in vitro
Concentration: not given
Setting: 8-mer, flanks averaged, mean of 2 arrays, mostly near background
Baseline: not given
Direction: higher = stronger binding
Quantity: E-score
Residues (chain): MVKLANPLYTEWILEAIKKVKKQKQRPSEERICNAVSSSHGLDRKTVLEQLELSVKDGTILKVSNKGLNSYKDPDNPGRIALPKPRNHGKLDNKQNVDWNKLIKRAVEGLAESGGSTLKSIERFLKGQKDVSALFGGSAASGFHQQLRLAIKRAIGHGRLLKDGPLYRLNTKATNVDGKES
CTAAGACA: -0.0819
GACAATAC: -0.0432
AGTGAAAC: -0.104
AAGTTAGA: -0.187
ATCGGAAA: 0.164
GAAGGTGA: -0.00525

Set 2
Target: Interferon regulatory factor 7, full length, phosphomimetic (IRF7, Homo sapiens, UniProt Q92985, residues 1-503, S471D/S472D/S475D/S476D/S477D/S483D/S484D/S487D)
Method: protein-binding microarray
Molecule type: double-stranded DNA, one strand shown
Sample: in vitro
Concentration: 2200 nM top
Setting: 60-bp whole probe
With: salmon DNA 0.4 mg/ml
Baseline: random background probes
Direction: higher = stronger binding
Quantity: fitted relative affinity
Shared flanks, not repeated: GCCTAGCAC … GTCTTGATTCGCTTGACGCTGCTG
Construct (chain): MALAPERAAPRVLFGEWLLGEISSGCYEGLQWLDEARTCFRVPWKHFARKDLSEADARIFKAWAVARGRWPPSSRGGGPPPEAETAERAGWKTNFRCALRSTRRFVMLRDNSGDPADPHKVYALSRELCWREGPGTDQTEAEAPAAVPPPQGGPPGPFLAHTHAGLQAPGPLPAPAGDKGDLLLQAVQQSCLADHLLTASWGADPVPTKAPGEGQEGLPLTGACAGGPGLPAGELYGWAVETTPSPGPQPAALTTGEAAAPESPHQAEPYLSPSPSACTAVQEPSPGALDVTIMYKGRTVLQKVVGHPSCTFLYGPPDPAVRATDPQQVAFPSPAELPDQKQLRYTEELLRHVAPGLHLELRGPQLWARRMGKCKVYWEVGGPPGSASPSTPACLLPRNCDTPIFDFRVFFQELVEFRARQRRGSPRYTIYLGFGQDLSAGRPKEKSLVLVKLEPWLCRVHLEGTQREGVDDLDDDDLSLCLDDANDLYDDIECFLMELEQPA
GACGATCTCAGACTGGCGACGTGCTAG: -0.0117 z-score
TGAGGACTGGACACTGGGTTAGTGCTA: -1.04 z-score
TTAGGACTCCTTATCCTTTAGTGCTAG: 0.778 z-score
TTTTTTTTGCAAGCTAAAAAAGTGCTA: -0.231 z-score
GACGGTATCCTACTGCCGACGTGCTAG: 0.506 z-score
GACGCTATCAGTCTCGAGACGTGCTAG: 0.625 z-score
TCATGTTTCCTCTTTCTACTGTGCTAG: 3.77 z-score
TCAACTTTCTTTAACTCACTGTGCTAG: 1.07 z-score

Set 3
Target: Sal-like protein 4, full length isoform A (SALL4, Homo sapiens, UniProt Q9UJQ4, residues 1-1053)
Sequence of UniProt Q9UJQ4 (whole entry, looked up): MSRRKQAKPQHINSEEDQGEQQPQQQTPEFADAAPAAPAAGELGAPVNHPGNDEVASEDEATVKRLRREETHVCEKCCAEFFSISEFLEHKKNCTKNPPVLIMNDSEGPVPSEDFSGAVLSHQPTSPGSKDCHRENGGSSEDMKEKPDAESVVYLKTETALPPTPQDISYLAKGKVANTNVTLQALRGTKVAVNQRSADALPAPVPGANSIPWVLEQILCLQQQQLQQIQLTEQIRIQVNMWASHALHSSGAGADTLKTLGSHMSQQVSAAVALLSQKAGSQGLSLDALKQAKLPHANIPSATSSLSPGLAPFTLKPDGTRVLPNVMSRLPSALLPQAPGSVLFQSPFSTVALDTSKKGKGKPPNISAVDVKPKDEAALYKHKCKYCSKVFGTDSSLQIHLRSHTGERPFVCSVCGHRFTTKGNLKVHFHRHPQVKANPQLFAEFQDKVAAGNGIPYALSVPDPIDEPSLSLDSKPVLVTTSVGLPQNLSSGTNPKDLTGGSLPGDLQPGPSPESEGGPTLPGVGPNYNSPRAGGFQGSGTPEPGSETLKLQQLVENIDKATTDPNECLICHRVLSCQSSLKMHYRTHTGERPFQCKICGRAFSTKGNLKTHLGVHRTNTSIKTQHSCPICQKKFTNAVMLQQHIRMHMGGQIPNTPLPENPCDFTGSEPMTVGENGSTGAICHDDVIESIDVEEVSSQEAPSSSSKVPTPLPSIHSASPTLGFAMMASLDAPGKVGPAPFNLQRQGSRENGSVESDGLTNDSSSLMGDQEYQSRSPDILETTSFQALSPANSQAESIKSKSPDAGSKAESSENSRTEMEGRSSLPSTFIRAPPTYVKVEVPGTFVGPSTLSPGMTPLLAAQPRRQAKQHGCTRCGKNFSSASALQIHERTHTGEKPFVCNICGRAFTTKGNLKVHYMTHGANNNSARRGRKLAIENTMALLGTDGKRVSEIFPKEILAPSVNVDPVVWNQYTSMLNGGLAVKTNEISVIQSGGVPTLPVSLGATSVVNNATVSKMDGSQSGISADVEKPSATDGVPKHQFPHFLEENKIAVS
Method: universal PBM
Molecule type: double-stranded DNA, one strand shown
Sample: in vitro
Concentration: 600 nM
Setting: 8-mer, flanks averaged, mean of replicates
Direction: higher = stronger binding
Quantity: E-score
CAGAGTAG: -0.0612
CGGTACCC: -0.212
CTAGATCC: -0.174
CTCAGCGA: 0.0448
ACCGCGAA: -0.254
GAACGGTA: -0.0434

Mixed results
PhoQ, residues 284 288 289 292 302 303 TNSAEL  fold induction (PhoP, residues 12 14 15 18 19 VQGLL (Escherichia coli, UniProt P23836); Sort-seq, refers to: YFP reporter; E. coli; PhoQ-PhoP variant library, with: 10 µM Mg2+; baseline: high Mg2+ state, higher = stronger signaling): 3.09

Repeated from above (set 2):
GACGCTATCAGTCTCGAGACGTGCTAG: 0.625 z-score
TCATGTTTCCTCTTTCTACTGTGCTAG: 3.77 z-score
TCAACTTTCTTTAACTCACTGTGCTAG: 1.07 z-score
